Measured values gathered from unrelated publications.
Numbered parts are unrelated; each lists some results of a single study. Changes are numbered by the printed parent chain.

Sample 1
Target: Interferon regulatory factor 7, full length, phosphomimetic (IRF7, Homo sapiens, UniProt Q92985, residues 1-503, S471D/S472D/S475D/S476D/S477D/S483D/S484D/S487D)
Method: protein-binding microarray
Molecule type: double-stranded DNA, one strand shown
Matrix: in vitro
Concentration: 2200 nM top
Setting: 60-bp whole probe
With: salmon DNA 0.4 mg/ml
Reference: random background probes
Direction: higher = stronger binding
Shared flanks, not repeated: GCCTAGCAC … GTCTTGATTCGCTTGACGCTGCTG
Target sequence (chain): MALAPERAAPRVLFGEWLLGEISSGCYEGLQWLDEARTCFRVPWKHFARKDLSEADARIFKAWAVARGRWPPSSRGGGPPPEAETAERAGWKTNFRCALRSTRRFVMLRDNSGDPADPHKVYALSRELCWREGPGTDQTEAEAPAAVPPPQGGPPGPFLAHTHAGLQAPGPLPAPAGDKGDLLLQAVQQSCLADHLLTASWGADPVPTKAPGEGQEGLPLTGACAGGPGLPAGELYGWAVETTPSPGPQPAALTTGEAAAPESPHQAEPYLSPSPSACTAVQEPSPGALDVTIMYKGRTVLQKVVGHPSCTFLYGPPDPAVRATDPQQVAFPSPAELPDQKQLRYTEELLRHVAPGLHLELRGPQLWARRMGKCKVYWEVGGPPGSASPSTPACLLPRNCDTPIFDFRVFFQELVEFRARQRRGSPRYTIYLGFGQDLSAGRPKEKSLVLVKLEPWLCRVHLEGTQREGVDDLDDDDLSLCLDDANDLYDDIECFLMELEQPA
Oligonucleotide	fitted relative affinity
GACGGACTGGAAACTGGGGACGTGCTA	-0.403 z-score
TAGGCTCCAGGTTCTCTGAAGGTGCTA	-0.453 z-score
TCAGGTATAAACTTGGGACTGTGCTAG	-0.431 z-score
TTAGGTCTCGGACTCGGTTAGTGCTAG	0.427 z-score
TTAGGTATCCTTTTCCTTCAGTGCTAG	1.62 z-score
GACGATATCAGTTCCGAGACGTGCTAG	0.833 z-score
TTAGATTTCGGTTTCGATTAGTGCTAG	11.9 z-score
TCAGTTTTCTAAACCATACTGTGCTAG	2.06 z-score

Sample 2
Variant: V161A
Target: ABI1, truncated, D143A, DHFR fusion (Arabidopsis thaliana)
Method: DHFR PCA, deep sequencing
Matrix: yeast
Setting: methotrexate growth selection, single substitutions
Reference: wild-type fitted maximum
Direction: higher = stronger binding
Starting sequence: PYL1, truncated, DHFR fusion (Arabidopsis thaliana); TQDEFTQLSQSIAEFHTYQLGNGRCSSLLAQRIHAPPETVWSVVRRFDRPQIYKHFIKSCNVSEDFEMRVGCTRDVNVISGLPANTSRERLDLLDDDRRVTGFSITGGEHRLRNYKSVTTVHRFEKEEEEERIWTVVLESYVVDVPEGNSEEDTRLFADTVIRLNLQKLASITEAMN
with	relative binding score
(+)-ABA 0.39 µM	2.71%
(+)-ABA 0.032 µM	5.39%
(+)-ABA 4.8 µM	10.1%
(+)-ABA 17 µM	1.31%
(+)-ABA 0 µM	5.54%
(+)-ABA 58 µM	13.6%

Sample 3
Target: CCNB2, cyclin fold, Cln2 fusion (human)
Method: yeast growth competition, sequencing
Matrix: yeast
Setting: weak parent motif
Reference: not given
Direction: higher = stronger binding
Starting sequence: INSM1 docking peptide (human); PKAIRKLHFEDEV; partner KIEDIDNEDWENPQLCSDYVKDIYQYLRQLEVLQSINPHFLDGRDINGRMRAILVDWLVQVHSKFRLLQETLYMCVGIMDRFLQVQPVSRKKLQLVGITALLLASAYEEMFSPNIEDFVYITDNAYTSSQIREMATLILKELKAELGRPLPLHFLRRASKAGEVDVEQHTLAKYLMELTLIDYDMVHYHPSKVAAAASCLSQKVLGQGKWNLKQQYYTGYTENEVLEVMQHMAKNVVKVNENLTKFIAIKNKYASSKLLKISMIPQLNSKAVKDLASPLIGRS
Variant	normalised enrichment score
PKAIAKLHFEDEV [R5A]	0.0139
PKAIRKLHFFDEV [E10F]	0.161
PKAIRKWHFEDEV [L7W]	0.201
PKAISKLHFEDEV [R5S]	0.297
PKLIRKLHFEDEV [A3L]	1.2
PKAIRKLHFEDRV [E12R]	0.188
PKAIRKLHFDDEV [E10D]	-0.0558
PKAIRKLHFEAEV [D11A]	0.636

Mixed results
Starting sequence: PafA, mature enzyme, eGFP fusion (Elizabethkingia meningoseptica, UniProt Q9KJX5); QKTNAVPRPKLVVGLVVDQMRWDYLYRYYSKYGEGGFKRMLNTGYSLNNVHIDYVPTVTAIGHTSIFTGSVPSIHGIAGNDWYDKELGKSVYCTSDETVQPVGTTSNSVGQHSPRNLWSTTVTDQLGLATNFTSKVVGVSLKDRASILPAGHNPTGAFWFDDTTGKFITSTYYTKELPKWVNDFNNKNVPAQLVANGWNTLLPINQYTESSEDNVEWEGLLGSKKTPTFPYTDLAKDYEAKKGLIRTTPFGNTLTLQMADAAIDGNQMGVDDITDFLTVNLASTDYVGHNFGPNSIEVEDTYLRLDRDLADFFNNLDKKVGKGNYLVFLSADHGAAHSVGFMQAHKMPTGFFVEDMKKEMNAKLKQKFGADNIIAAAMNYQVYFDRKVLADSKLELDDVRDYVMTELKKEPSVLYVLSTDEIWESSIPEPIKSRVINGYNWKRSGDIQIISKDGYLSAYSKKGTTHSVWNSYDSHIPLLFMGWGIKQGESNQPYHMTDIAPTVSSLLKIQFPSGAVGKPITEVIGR
Variant	target	assay	system	setting	scale	quantity	result
A60V	inorganic phosphate, free oxyanion	microfluidic competitive inhibition	in vitro, cell-free expressed	not given, derived from inhibition constants, unchanged parent 615000 nM	lower = stronger binding	phosphate dissociation constant	1.07 mM

For quick reference, copied from above (mixed results):
Variant	target	assay	system	setting	scale	quantity	result
A60V	inorganic phosphate, free oxyanion	microfluidic competitive inhibition	in vitro, cell-free expressed	not given, derived from inhibition constants, unchanged parent 615000 nM	lower = stronger binding	phosphate dissociation constant	1.07 mM
